Experimental data collected from several papers.
Lines come from different studies, so protocols differ. Values joined by “and” are separate records of one study, mostly repeats; a detail may differ. ± marks the error that the study gave.
ache: Acetylcholinesterase (ache, Electrophorus electricus, UniProt O42275)
Sequence of UniProt O42275 (whole entry, looked up): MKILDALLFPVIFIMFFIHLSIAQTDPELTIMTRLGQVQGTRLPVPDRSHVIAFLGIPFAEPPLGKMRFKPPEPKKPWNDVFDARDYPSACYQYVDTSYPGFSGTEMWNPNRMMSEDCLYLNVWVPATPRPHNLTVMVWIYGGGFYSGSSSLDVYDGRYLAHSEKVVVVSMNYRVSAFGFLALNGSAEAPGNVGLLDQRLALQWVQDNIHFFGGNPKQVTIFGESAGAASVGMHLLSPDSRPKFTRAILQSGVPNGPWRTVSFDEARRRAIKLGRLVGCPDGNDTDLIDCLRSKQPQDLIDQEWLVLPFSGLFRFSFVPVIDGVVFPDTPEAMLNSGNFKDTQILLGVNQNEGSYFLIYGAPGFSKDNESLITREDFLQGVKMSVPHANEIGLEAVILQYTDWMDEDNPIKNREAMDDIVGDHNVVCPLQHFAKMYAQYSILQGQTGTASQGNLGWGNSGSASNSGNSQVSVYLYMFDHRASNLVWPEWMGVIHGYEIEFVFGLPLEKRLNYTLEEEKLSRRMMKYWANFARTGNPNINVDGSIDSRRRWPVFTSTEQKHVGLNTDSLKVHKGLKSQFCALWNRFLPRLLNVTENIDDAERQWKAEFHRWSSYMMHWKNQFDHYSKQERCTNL
AKR1C2: Aldo-keto reductase family 1 member C2 (AKR1C2, Homo sapiens, UniProt P52895)
Sequence of UniProt P52895 (whole entry, looked up): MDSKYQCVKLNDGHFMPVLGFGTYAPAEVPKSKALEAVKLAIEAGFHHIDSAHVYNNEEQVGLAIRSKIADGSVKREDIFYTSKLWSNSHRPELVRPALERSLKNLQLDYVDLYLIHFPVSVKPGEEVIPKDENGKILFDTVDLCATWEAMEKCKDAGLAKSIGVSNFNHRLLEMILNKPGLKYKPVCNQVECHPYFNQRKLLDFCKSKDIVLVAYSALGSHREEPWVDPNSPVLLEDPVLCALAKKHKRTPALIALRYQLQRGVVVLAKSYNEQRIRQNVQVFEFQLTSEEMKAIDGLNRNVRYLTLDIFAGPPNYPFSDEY
Tripartite terminase subunit 3 C-terminal nuclease domain: Tripartite terminase subunit 3, C-terminal nuclease domain (Human betaherpesvirus 5, UniProt P16732)
Sequence of UniProt P16732 (whole entry, looked up): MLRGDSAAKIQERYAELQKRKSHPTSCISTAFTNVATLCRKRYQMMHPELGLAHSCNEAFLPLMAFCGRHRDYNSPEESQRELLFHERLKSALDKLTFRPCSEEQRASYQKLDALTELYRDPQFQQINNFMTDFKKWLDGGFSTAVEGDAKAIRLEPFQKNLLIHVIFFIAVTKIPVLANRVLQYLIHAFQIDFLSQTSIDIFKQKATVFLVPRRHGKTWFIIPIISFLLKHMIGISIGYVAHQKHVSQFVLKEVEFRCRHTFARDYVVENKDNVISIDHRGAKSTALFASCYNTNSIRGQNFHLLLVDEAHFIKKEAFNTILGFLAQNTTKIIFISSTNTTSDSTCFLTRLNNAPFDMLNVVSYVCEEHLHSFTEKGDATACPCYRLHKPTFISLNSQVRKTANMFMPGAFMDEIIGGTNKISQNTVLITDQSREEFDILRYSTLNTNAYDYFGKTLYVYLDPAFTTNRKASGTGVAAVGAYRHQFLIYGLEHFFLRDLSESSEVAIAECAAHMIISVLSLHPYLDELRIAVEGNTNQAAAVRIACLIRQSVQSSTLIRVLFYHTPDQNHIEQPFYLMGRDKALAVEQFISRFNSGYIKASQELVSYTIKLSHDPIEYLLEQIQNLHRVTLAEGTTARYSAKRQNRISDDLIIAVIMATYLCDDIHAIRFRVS
CTSB: Cathepsin B (CTSB, Homo sapiens, UniProt P07858)
Sequence of UniProt P00690 (whole entry, looked up): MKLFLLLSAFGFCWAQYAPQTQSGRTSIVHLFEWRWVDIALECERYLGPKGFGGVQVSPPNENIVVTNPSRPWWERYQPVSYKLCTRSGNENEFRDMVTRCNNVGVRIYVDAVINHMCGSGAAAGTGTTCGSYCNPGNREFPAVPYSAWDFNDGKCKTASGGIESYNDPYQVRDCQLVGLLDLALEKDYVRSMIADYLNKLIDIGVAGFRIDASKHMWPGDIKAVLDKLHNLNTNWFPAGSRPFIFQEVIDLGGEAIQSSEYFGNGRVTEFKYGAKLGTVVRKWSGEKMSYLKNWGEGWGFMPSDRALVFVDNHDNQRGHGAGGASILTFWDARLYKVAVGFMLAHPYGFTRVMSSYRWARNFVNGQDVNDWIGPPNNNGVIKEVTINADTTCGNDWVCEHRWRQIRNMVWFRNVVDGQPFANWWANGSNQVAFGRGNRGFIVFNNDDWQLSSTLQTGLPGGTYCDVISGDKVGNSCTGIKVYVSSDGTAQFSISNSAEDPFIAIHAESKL
Sequence of UniProt P34975 (whole entry, looked up): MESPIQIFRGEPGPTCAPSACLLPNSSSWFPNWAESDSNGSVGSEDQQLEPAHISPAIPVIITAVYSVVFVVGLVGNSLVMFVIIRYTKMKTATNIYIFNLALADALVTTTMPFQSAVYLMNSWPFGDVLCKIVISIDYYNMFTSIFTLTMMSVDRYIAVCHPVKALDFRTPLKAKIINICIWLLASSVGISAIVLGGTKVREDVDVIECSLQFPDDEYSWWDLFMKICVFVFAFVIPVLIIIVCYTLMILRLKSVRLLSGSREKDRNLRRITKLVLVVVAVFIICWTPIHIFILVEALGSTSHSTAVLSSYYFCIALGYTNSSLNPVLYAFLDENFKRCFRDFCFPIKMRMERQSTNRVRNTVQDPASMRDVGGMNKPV
Sequence of UniProt Q86X55 (whole entry, looked up): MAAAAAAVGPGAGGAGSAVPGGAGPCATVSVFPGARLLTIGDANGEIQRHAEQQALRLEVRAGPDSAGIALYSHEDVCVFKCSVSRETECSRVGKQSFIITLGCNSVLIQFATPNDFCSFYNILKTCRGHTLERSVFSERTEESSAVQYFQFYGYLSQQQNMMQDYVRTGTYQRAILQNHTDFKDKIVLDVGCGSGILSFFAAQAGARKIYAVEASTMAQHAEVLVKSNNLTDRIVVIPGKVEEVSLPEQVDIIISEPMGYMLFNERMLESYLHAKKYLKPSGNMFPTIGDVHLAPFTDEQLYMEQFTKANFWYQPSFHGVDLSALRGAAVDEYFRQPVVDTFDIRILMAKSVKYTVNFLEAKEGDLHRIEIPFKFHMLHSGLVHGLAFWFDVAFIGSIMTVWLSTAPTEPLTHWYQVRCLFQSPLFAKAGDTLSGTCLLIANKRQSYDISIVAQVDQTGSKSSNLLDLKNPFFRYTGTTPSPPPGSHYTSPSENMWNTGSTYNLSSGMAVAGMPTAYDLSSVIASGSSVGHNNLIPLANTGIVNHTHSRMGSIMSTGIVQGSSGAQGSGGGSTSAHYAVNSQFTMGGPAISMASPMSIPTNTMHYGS
Sequence of UniProt G5EFZ1 (whole entry, looked up): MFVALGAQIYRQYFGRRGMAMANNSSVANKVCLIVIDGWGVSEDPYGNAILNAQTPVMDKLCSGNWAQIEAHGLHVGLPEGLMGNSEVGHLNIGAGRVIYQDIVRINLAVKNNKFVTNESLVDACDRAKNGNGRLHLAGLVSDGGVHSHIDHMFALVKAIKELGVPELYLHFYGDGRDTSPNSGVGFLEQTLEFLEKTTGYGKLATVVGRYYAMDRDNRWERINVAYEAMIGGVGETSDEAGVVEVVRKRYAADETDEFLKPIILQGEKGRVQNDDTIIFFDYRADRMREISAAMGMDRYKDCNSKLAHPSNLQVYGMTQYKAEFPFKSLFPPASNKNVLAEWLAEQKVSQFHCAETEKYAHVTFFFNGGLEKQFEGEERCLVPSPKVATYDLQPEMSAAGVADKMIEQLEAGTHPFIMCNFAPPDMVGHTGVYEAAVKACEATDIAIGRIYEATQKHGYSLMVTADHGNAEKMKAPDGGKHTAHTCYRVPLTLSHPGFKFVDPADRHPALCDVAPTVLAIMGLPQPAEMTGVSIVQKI
Sequence of UniProt O14757 (whole entry, looked up): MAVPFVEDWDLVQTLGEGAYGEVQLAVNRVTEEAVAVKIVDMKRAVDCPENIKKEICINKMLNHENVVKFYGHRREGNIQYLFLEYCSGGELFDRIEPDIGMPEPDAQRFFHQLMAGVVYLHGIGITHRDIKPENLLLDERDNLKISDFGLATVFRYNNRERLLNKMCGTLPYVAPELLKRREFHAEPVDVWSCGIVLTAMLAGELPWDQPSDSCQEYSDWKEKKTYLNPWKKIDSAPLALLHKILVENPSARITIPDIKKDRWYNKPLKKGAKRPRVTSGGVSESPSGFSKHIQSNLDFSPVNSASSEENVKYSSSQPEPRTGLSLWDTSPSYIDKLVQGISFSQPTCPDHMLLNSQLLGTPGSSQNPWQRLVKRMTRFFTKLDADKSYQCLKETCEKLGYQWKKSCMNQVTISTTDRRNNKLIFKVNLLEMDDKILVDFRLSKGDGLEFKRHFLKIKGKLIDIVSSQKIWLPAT
Sequence of UniProt P45568 (whole entry, looked up): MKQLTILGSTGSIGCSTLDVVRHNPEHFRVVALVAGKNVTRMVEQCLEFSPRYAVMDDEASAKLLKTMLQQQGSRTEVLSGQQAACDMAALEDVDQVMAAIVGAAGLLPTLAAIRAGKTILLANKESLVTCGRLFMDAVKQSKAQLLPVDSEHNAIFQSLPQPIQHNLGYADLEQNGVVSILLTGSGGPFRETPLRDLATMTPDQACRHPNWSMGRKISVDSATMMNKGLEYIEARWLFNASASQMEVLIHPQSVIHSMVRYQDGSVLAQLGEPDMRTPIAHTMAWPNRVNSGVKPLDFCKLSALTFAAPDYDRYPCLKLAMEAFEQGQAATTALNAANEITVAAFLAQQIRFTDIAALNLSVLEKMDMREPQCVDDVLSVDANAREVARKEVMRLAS
Sequence of UniProt P49137 (whole entry, looked up): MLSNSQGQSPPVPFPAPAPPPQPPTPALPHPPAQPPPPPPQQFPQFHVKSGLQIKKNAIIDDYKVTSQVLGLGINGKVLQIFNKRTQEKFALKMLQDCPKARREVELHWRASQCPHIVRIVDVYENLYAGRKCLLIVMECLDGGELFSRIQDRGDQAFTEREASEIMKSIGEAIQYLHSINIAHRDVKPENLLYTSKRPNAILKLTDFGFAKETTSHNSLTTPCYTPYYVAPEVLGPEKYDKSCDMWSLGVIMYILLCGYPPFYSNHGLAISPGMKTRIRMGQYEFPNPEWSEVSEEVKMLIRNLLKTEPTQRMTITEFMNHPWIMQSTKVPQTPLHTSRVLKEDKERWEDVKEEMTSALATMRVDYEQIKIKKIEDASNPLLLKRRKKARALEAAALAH

Structure (SMILES) | target or system | assay | system | setting | scale | endpoint | result
FC(F)(F)c1ccc(Nc2c3c(nc4ccccc24)CCCC3)cc1 | ache | enzyme activity, inhibitor, Ellman |  | 100 µM |  | inhibition | > 90%
CC(C)C[C@H](NC(=O)[C@H](Cc1ccccc1)NC(=O)CNC(=O)CNC(=O)[C@@H](N)Cc1ccc(O)cc1)C(=O)O |  | K+ current, agonist, photo-uncaging | rat locus coeruleus neurons | small somatic currents |  | reversal potential | -109 ± 1.6 mV
CC(=O)NC(Cc1ccc(Br)c(Cl)c1)C(=O)N[C@@H](C)C(=O)N1CCC[C@H]1C(=O)N1CCC[C@H]1C(=O)N[C@@H](CCC(=O)O)C(=O)N[C@@H](Cc1c[nH]cn1)C(=O)N[C@@H](CO)C(=O)N[C@H](C(=O)N[C@@H](C)C(N)=O)[C@@H](C)OP(=O)(O)O (some centres unmarked) | CHEK1 (Homo sapiens, UniProt O14757) | enzyme activity, inhibitor |  | 10 µM |  | inhibition | 4.73%
Cc1ccc2c(Nc3ccc4ccccc4n3)c3c(nc2c1)CCCC3 | ache | enzyme activity, inhibitor, Ellman |  | 100 µM |  | inhibition | 44.1%
C[C@@]12CC[C@H]3[C@@H](CCC4=CC(=O)C=C[C@@]43F)[C@@H]1CCC2=O | AKR1C2 | enzyme activity, inhibitor, absorbance |  | 10 µM, pH 9 |  | inhibition | 10.5%
O=C(C[P+]([Au-][Cl])(c1ccccc1)c1ccccc1)[O][Ti+2][O]C(=O)C[P+]([Au-][Cl])(c1ccccc1)c1ccccc1.c1cc[cH-]c1.c1cc[cH-]c1 | MAPKAPK2 (Homo sapiens, UniProt P49137) | kinase activity |  | 10 µM |  | inhibition | ≥ 50%
CCOC(=O)C1C(OC(c2ccc(Cl)cc2)c2ccc(Cl)cc2)CC2CCC1N2C (single isomer, unassigned) | ADORA1 (Homo sapiens, UniProt P30542) | binding, radioligand displacement |  | inactive if below 75% at 10000 nM, added: [3H]DPCPX |  | Ki | inactive
O=C(NCc1cccc(F)c1F)c1cn(Cc2ccc(F)cc2)cc(O)c1=O | Tripartite terminase subunit 3 C-terminal nuclease domain | endonuclease activity, inhibitor, ELISA |  | 20 µM |  | inhibition | 8%
Nc1ccc(/C=C/C(=O)N2CCc3c(oc4c(-c5ccc(F)cc5)cc(-c5ccc(C(=O)N6CCC(F)(F)CC6)cn5)cc34)C2)cn1 | MIA PaCa-2 | phosphorylation, Western blot, item: phospho-β-catenin |  | 72 h |  | IC50 | 0.73 µM
c1ccc2ncc(Nc3c4c(nc5ccccc35)CCCC4)cc2c1 | ache | enzyme activity, inhibitor, Ellman |  | 50 µM |  | inhibition | 34.7%
Cc1c(C(=O)Nc2cccc(C(F)(F)F)c2)cc(-c2ccccc2)n1CCCN1CCOCC1 | TRPV4 (Homo sapiens, UniProt Q9HBA0) | calcium influx, antagonist | Huh-7 | 1 µM, added: GSK1016790A 10 nM |  | inhibition | inhibited
COc1cc(-c2oc3cc(OC)c(OC)c(O)c3c(=O)c2OC)ccc1O | Neutrophil elastase (ELANE, Homo sapiens, UniProt P08246) | enzyme activity, inhibitor |  | 10 µM |  | inhibition | 20.3 to 27.1%
NCC(CCC(N)C(=O)O)CC1OC(n2cnc3c(N)ncnc32)C(O)C1O (centres unmarked) | CARM1 (Homo sapiens, UniProt Q86X55) | enzyme activity, inhibitor |  | 20 µM |  | inhibition | > 50%
Cc1ccc(N2CC3CCC(C2)N3C)cc1C(=O)N[C@H](C)c1cc(-c2cnn(C)c2)nc2ccccc12 | USP7 (Homo sapiens, UniProt Q93009) | enzyme activity |  | concentration not given |  | inhibition | no inhibition
O=C(Cc1ccc(F)cc1)N1CCN(Cc2noc(-c3cccc(Cl)c3)n2)CC1 | SCN9A (Homo sapiens, UniProt Q15858) | sodium current, whole-cell patch clamp | HEK293, stable | 20 µM |  | inhibition | 1 ± 3%
COc1ccc2cc(/C=C/c3cc[n+](Cc4ccc(F)cc4)cc3)ccc2c1 | Amyloid-beta precursor protein, amyloid-beta 1-42 peptide (Rattus norvegicus, UniProt P08592) | Abeta42 self-aggregation, thioflavin T |  | 5 µM |  | inhibition | 60%
Oc1cccc2cccnc12 | 1-deoxy-D-xylulose 5-phosphate reductoisomerase (Escherichia coli K-12, UniProt P45568) | enzyme activity, inhibitor, absorbance |  | 100 µM |  | inhibition | 100%
COc1ccc(Nc2c(NC3CCN(Cc4ccccc4)CC3)c(=O)c2=O)cc1OC | ache | enzyme activity, inhibitor, Ellman |  | 12.5 µM |  | inhibition | 49.6%
Clc1ccc2nc3c(c(Nc4ccc5ccccc5n4)c2c1)CCCC3 | ache | enzyme activity, inhibitor, Ellman |  | 100 µM |  | inhibition | > 90%
CC(C)C[C@@H]1NC(=O)[C@H](C(C)C)NC(=O)[C@H](C)NC(=O)[C@H](Cc2ccc(O)cc2)NC(=O)[C@H](CCC(N)=O)NC(=O)[C@H](CC(C)C)NC(=O)[C@@H](Cc2ccc(O)cc2)NC(=O)CSC[C@@H](C(N)=O)NC(=O)[C@H](CCC(=O)O)NC(=O)[C@H](CCCNC(=N)N)NC(=O)[C@H](CCCNC(=N)N)NC(=O)[C@H](CCCCN)NC(=O)[C@H](Cc2c[nH]cn2)NC(=O)[C@H](CCCNC(=N)N)NC1=O | CTSB | enzyme activity |  | 10 µM |  | inhibition | inactive
C[C@@](O)(C(F)F)[C@H](NC(=O)c1ccc(C#CC#CC2CC2)cc1)C(=O)NO | Collagenase 3 (MMP13, Homo sapiens, UniProt P45452) | enzyme activity, inhibitor |  | 30 µM |  | inhibition | ≤ 30%
CC(=O)N(C)[C@@H](Cc1ccccc1)C(=O)N[C@@H](Cc1ccccc1)C(=O)N[C@@H](Cc1ccc(O)cc1)C(=O)N[C@@H](CCCNC(=N)N)C(=O)N[C@@H](CC(C)C)C(=O)N[C@@H](CCCNC(=N)N)C(=O)N[C@@H](CCCNC(=N)N)C(=O)N[C@H](C)C(=O)N[C@@H](CCCNC(=N)N)C(=O)N1CCC[C@H]1C(=O)N[C@@H](CCCCN)C(N)=O | Oprk1 (Rattus norvegicus, UniProt P34975) | adenylyl cyclase activity, agonist | CHO cells | 10 µM | relative to: dynorphin A(1-13) amide | inhibition | > 40%

Structure (SMILES) | target or system | assay | system | setting | scale | endpoint | result
CC(C)[C@H](NC(=O)CNC(=O)[C@H](CCC(N)=O)NC(=O)[C@H](C)N)C(=O)O |  |  | human | 1 mg/kg single dose |  | subjects with serious adverse events | 0%
COc1ccc(C[C@H]2C(=O)N[C@@H](Cc3ccc(O)cc3)C(=O)N3CCC[C@H]3C(=O)NCC(=O)N[C@@H]([C@@H](C)O)C(=O)N[C@@H](C)C(=O)N[C@@H](CCC(N)=O)C(=O)N(C)[C@@H](Cc3ccc(O)cc3)C(=O)N[C@@H]([C@@H](C)O)C(=O)N[C@H](C(N)=O)CSCC(=O)N[C@H](Cc3ccc(O)cc3)C(=O)N[C@@H](Cc3c[nH]c4ccccc34)C(=O)N(C)[C@@H](Cc3ccc(O)cc3)C(=O)N[C@@H](CC(=O)O)C(=O)N(C)[C@@H](CO)C(=O)N(C)[C@@H](Cc3ccc(O)cc3)C(=O)N2C)cc1 | ipgm-1 (Caenorhabditis elegans, UniProt G5EFZ1) | enzyme activity |  |  |  | AC50 | 34.7 µM
S=C(NCc1ccccn1)NCc1ccccn1 | AMY2 (Sus scrofa, UniProt P00690) | enzyme activity, inhibitor |  | 1000 µg/mL |  | inhibition | 59.1%
CCC(=O)N(C)c1ccc(Cl)c(Cl)c1 | Escherichia coli | Ames test | WP2 uvrA | 1.00 mg/plate, without S9 activation |  | revertants | 32 ± 2.1 revertants/plate
Cc1ccnc(Nc2c3c(nc4ccccc24)CCC(C)C3)c1 (centres unmarked) | ache | enzyme activity, inhibitor, Ellman |  | 100 µM |  | inhibition | 77.4%
CCN(CC)CCOc1ccc(-c2nnn(Cc3ccc(OC)cc3)c2N)cc1 | TGF-beta receptor type-1, with RKIP (TGFBR1, Homo sapiens, UniProt P36897, R255A) | binding to RKIP |  | concentration not given, TGFBR1 R255A mutant |  | inhibition | no inhibition
O=C(NCc1cc(Cl)ccc1F)c1cn(Cc2ccc(F)cc2)cc(O)c1=O | Tripartite terminase subunit 3 C-terminal nuclease domain | endonuclease activity, inhibitor, ELISA |  | 20 µM |  | inhibition | 7%
C[C@]12CC[C@@H]3c4cc(Cl)c(O)c(Cl)c4CC[C@H]3[C@@H]1CCC2=O | AKR1C2 | enzyme activity, inhibitor, absorbance |  | 100 µM, pH 9 |  | inhibition | 50%
COc1ccc(Nc2c3c(nc4ccc(Cl)cc24)CCCC3)nc1 | ache |  |  | 100 µM |  | inhibition | 97.6 ± 3.92%
O=C(O)/C=C/c1ccc(O)cc1 | alpha-glucosidase | enzyme activity |  | 1000 µg/mL |  | inhibition | 74.6% and 79.3%
CN[C@](C)(C[18F])C(=O)O | MDA-MB-468 tumour model |  | host not given, bone | 1 h, tumour-bearing |  | tracer uptake | 1.3 %ID/g
C[C@@H]1CCC2=C(CCCC2(C)C)[C@@]1(C)CC[C@H](CCCc1ccoc1)COS(=O)(=O)O | blaCMY-10 (Klebsiella aerogenes, UniProt Q99QC1) | enzyme activity, inhibitor, absorbance |  | 200 µM |  | inhibition | ~90%
CCc1ccc(Nc2c(NC3CCN(Cc4ccccc4)CC3)c(=O)c2=O)cc1 | ache | enzyme activity, inhibitor, Ellman |  | 12.5 µM |  | inhibition | 43.2%
CCCNC(=O)[C@H](CC(C)C)NC(=O)[C@H](Cc1c[nH]cn1)NC(=O)CNC(=O)[C@@H](NC(=O)[C@H](C)NC(=O)[C@H](Cc1c[nH]c2ccccc12)NC(=O)[C@H](CCC(N)=O)NC(=O)[C@@H](Cc1ccccc1)NC(=O)CCCCCNC(=O)CN1CCN(CC(=O)O)CCN(CC(=O)O)CCN(CC(=O)O)CC1)C(C)C [indium-111 labelled] | Gastrin-releasing peptide receptor (Mus musculus, UniProt P21729) | biodistribution | CF-1 mice, bladder | intravenous, 1 h, added: bombesin 100 µg, blocking |  | tissue uptake | 1.96 ± 1.39 %ID/g
C[C@@]12CC[C@@H]3c4ccc(O)c(Cl)c4CC[C@H]3[C@@H]1CCC2=O | AKR1C2 | enzyme activity, inhibitor, absorbance |  | 100 µM |  | inhibition | 80%
COc1ccnc(Nc2c3c(nc4ccccc24)CCCC3)c1 | ache | enzyme activity, inhibitor, Ellman |  | 50 µM |  | inhibition | 85.2%
O=C(Oc1cncc(Cl)c1)c1cccc2[nH]ccc12 | CTSB | enzyme activity, inhibitor |  | concentration not given, added: Z-Arg-Arg-pNA |  | inhibition | no inhibition
O=C(NCc1ccc(Cl)cc1Cl)c1cn(Cc2ccc(F)cc2)cc(O)c1=O | Tripartite terminase subunit 3 C-terminal nuclease domain | endonuclease activity, inhibitor, ELISA |  | 20 µM |  | inhibition | 15%
CC[C@H](C)[C@H](NC(=O)[C@H](CC(N)=O)NC(=O)[C@H](CCCCN)NC(=O)[C@@H](NC(=O)[C@@H](N)CC(C)C)[C@@H](C)CC)C(=O)NCC(=O)N[C@H](C(=O)N[C@H](C(=O)N[C@H](C(=O)N[C@@H](CO)C(=O)N[C@@H](CCCCN)C(=O)N[C@H](C(=O)N[C@H](C(=O)N[C@@H](CCCCN)C(=O)N[C@H](C(=O)N[C@H](C(=O)N[C@@H](Cc1c[nH]c2ccccc12)C(=O)N[C@@H](CCCCN)C(=O)N[C@@H](Cc1ccccc1)C(=O)N[C@H](C(=O)N[C@@H](CC(=O)O)C(=O)N[C@@H](CC(=O)O)C(=O)O)[C@@H](C)O)C(C)C)[C@@H](C)O)[C@@H](C)CC)[C@@H](C)CC)C(C)C)[C@@H](C)CC)[C@@H](C)O |  | lipid vesicle dissociation | POPC vesicles | pH 7.5 |  | koff | 6.1 s^–1
C[C@]12CCC[C@H]1[C@@H]1CCc3c(cc(Br)c(O)c3Br)[C@H]1CC2 | AKR1C2 | enzyme activity, inhibitor, absorbance |  | 100 µM, pH 9 |  | inhibition | 74.4%
c1ccc2c(Nc3c4c(nc5ccccc35)CCCC4)cccc2c1 | ache | enzyme activity, inhibitor, Ellman |  | 100 µM |  | inhibition | 65.1%
CN(C(=N)Nc1ccc(Br)c2ccccc12)c1cccc(C(F)(F)F)c1 | NMDA receptor PCP site, rat | binding, inhibitor | brain membranes | 1.0 µM, added: [3H]TCP |  | inhibition | -2.6%
